Measured values from different studies.
Protocols differ between the studies behind these lines. ± marks the error that the study gave.

Compound | cell line | assay | conditions | IC50
Cc1ccc(NC(=O)CSc2nnc(-c3n[nH]c(=O)c4ccccc34)o2)cc1 | WI-38 | cell growth or viability, MTT | 48 h | 66 µM
Cn1cc(Nc2nccc(-c3ccc4c(c3)CN(C3COC3)CC[C@H]4NC(=O)c3cn(C(C)(C)C)nn3)n2)cn1 | Ramos | PLCγ2 Y1217 phosphorylation | together with: anti-IgM | 0.0069 µM
COc1ccc(CNC(=O)c2cc(O)c3cc(OC)cc(OC)c3c2)cc1 | C26, HepG2, MCF7 | cytotoxicity, MTT | range over three cell lines | 14.5 to 25.1 µM
CCCS(=O)(=O)Nc1ccc(F)c(C(=O)c2c[nH]c3ncc(-c4ccc(Cl)cc4)cc23)c1F | A-375 inducible BRAF V600E high | ERK signalling, Western blot | 1 h, together with: 0.2 µg/mL doxycycline | > 10 µM
O=C1C(n2nc(-c3c(O)c4ccccc4oc3=O)cc2-c2ccc(Br)cc2)c2ccccc2N1Cc1ccccc1 (centres unmarked) | A-375 | cell growth or viability, SRB | 72 h | 4.84 µM
Cc1cc(C(=O)/C(=C\c2ccc(Cl)cc2)c2ccc(Cl)cc2)c(C(=O)N2CCCCC2)c(=O)[nH]1 | A-375 | cell proliferation, MTT | 72 h | > 10 µM
CC[C@H](C)n1cc(C)c2c(C(=O)NCc3c(C)cc(C)[nH]c3=O)cc(-c3ccc(N4CCNCC4)nc3)cc21 | SU-DHL10 | cell growth or viability |  | 0.7 µM
O=C(NCCCl)Nc1ccc(S(=O)(=O)Oc2cnccc2I)cc1 | MOLM-13 | cell growth or viability, MTT | 48 h | 0.6 µM
Cc1ccc(NC(=O)CSc2nnc(-c3ccc(NC(=O)c4cccnc4)cc3)n2N)cc1 | RAW264.7 | NO release, inhibitor, Griess | LPS-stimulated | 2.6 µM
COC(=O)c1c(-c2ccc(C)cc2)c2n(c1C(=O)OC)CCn1cccc1-2 | MDA-MB-231 | cell growth or viability, MTT | 48 h | 73.2 µM
CCN(c1ccc(OC)cc1)c1nc(N)nc2[nH]c3ccccc3c12 | HeLa transfected with βIII-tubulin | cell growth, SRB |  | 0.0455 ± 0.001 µM
CCCCCC(O)CCCO (centres unmarked) | SH-SY5Y | cell growth or viability, SRB | 24 h | > 1000 µM
O=c1[nH]c2ccccc2nc1/C=C/c1ccc(C(F)(F)F)cc1 | HeLa 229 | cell growth or viability, MTT | 72 h | > 50 µM
CC(C)=CCc1c(O)cc(/C=C/c2ccccc2)cc1O | HL-60 | ROS generation, inhibitor, DCFH-DA | together with: PMA | > 25 µg/mL
O=c1c(/C=C/c2ccccn2)nc2ccccc2n1Cc1ccccc1 | HeLa 229 | cell growth or viability, MTT | 72 h | > 50 µM
COc1cccc2c1c(O)c(C(=O)N(c1ccc(C(F)(F)F)cc1)C1CCCCC1)c(=O)n2C | LNCaP | nuclear HIF-1α level, immunoblot, item: HIF-1α | normoxia and hypoxia | 1 µM
O=c1cc(-c2ccccc2)oc2cc(O)cc(O)c12 | HL-60 | cell growth or viability, ATP luminescence | 24 h | 328 µM
Nc1nc2sc(CCCCCc3ccc(C(=O)N[C@@H](CCC(=O)O)C(=O)O)cc3)cc2c(=O)[nH]1 | KB and IGROV-1 | cell growth |  | 0.0047 to 0.334 µM
O=C(CSc1nnc(-c2ccc(NC(=O)c3cccnc3)cc2)o1)Nc1cccc(Br)c1 | RAW264.7 | IL-6 release, inhibitor, ELISA | LPS-stimulated | 1.93 µM
Ic1cccc2cnccc12 | axotomized mouse DRG neurons | axon degeneration | 16 h | 2.1 µM
COc1ccc(Nc2ncnc(-c3cccnc3Nc3cc(NC(=O)c4ccc(CN5CCN(C)CC5)cc4)ccc3C)n2)cc1 | Ba/F3 expressing BCR-ABL T315I | cell proliferation, inhibitor, trypan blue exclusion | 48 h, without IL-3 | < 0.5 µM
CC(=O)c1ccc(NC(=O)CSc2nnc(-c3ccc(NC(=O)c4cccnc4)cc3)n2N)cc1 | RAW264.7 | NO release, inhibitor, Griess | LPS-stimulated | 1.22 µM
O=C1Nc2ccccc2C1n1nc(-c2c(O)c3ccccc3oc2=O)cc1-c1ccc(Cl)cc1 (centres unmarked) | A-375 | cell growth or viability, SRB | 72 h | 7.13 µM

Excerpt of the above:
Compound | cell line | assay | conditions | IC50
O=c1cc(-c2ccccc2)oc2cc(O)cc(O)c12 | HL-60 | cell growth or viability, ATP luminescence | 24 h | 328 µM
Nc1nc2sc(CCCCCc3ccc(C(=O)N[C@@H](CCC(=O)O)C(=O)O)cc3)cc2c(=O)[nH]1 | KB and IGROV-1 | cell growth |  | 0.0047 to 0.334 µM
